Results gathered from unrelated publications.
Protocols differ between the studies behind these lines.

SMILES	assay	test system	conditions	quantity	result
C[C@]1(O)C[C@@](N)(c2ccc(-c3nc4n(c3-c3ccccc3)COc3ccncc3-4)cc2)C1	–	human, advanced or metastatic solid tumours	24 mg intermittent, phase I dose escalation	patients with Anemia TEAE	0%
O=C1Nc2cc3[nH]nc(-c4ccncc4)c3cc2CN1Cc1ccccc1	CTCAE v4.03	human, relapsed or refractory advanced solid tumours	intravenous, 3.6 mg/kg	patients with photopsia	0%
Cn1cncc1-c1c(F)cncc1NC(=O)c1c(N)nn2cc(F)cnc12	–	human patients	oral, 180 mg once daily, 2 weeks on 1 week off	patients grade ≥3 Anemia	0%
Cn1nc(NS(C)(=O)=O)c2c(Cl)ccc(-n3c([C@H](Cc4cc(F)cc(F)c4)NC(=O)Cn4nc(C(F)F)c5c4C(F)(F)[C@@H]4C[C@H]54)nc4nc(OCCC(F)(F)F)ccc4c3=O)c21	refers to: total cholesterol grade 3 increase	human	200 mg once daily, powder in bottle	patients with laboratory abnormality	0%
C[C@@H]1OC(=O)NN=C1c1ccc(-c2ccc(F)cc2)c(C(F)(F)F)c1	phase I trial, refers to: alkaline phosphatase increased	human patients	20 mg load, 1 mg daily, all grades	patients with TEAE	50%
Cc1cn([C@H]2O[C@@H](CO[P@@](=O)(N[C@@H](C)C(=O)OC(C)C)Oc3ccccc3)[C@H](O)[C@H]2F)c(=O)[nH]c1=O	refers to: blood CPK increased	human	25 mg	patients with TEAE	0%
CN[C@@H](C)C(=O)N[C@H]1CN(S(=O)(=O)c2cccc(S(=O)(=O)N3CC[C@H]4CC[C@@H](C(=O)NC(c5ccccc5)c5ccccc5)N4C(=O)[C@@H](NC(=O)[C@H](C)NC)C3)c2)CC[C@H]2CC[C@@H](C(=O)NC(c3ccccc3)c3ccccc3)N2C1=O	–	human, advanced solid tumours	intravenous, 30 mg weekly, CTCAE version 4.0	patients with any TRAE	33.3%
C=CC(=O)Nc1cc(Nc2nccc(Nc3cc(Cl)c(F)cc3C(C)(C)O)n2)c(OC)cc1N1CC[C@@H](N(C)C)C1	–	human patients	oral, 50 mg, treatment-emergent adverse events	patients with nausea	16.7%
N[C@@H]1c2ccccc2OC12CCN(c1cnc3c(N4CCCc5ncccc54)n[nH]c3n1)CC2	refers to: constipation	human advanced or metastatic solid tumours	oral, dose not given, phase Ia all doses	patients with adverse event	25%
COc1ncnn2ccc(-c3cnc4nc(C)n(Cc5nnc([C@@H](C)F)o5)c4c3)c12	–	human	oral, dose not given, grade 5	patients with hypotension	0%
COc1ccc(-c2c(-c3ccc(C#N)c(F)c3)nc(N3CCC(N)CC3)n(C)c2=O)cc1F	refers to: acute kidney injury	human patients	oral, dose not given, dose escalation	patients with serious TEAE	2%
C=CCNc1c(O)cc2c(O)c1C[C@@H](C)C[C@H](OC)[C@H](O)[C@@H](C)/C=C(\C)[C@H](OC(N)=O)[C@@H](OC)/C=C\C=C(/C)C(=O)N2	–	human unresectable metastatic GIST or sarcoma	intravenous, dose not given, treatment-emergent, all doses	patients with back pain	22%
CNC(=O)c1cc(Oc2ccc(NC(=O)Nc3cc(C(C)(C)C)nn3-c3ccc4ncccc4c3)c(F)c2)ccn1	–	human, trial	oral, dose not given, all doses	patients with related serious Dysarthria AE	2%
CN(C)C(=O)c1cc2cnc(Nc3ccc(N4CCNCC4)cn3)nc2n1C1CCCC1	refers to: interstitial lung disease or pneumonitis	human, HR+/HER2− advanced breast cancer	oral, dose not given, grade 3, CTCAE v4.03	patients with adverse event	0%

Excerpt of the above:
SMILES	assay	test system	conditions	quantity	result
COc1ncnn2ccc(-c3cnc4nc(C)n(Cc5nnc([C@@H](C)F)o5)c4c3)c12	–	human	oral, dose not given, grade 5	patients with hypotension	0%
COc1ccc(-c2c(-c3ccc(C#N)c(F)c3)nc(N3CCC(N)CC3)n(C)c2=O)cc1F	refers to: acute kidney injury	human patients	oral, dose not given, dose escalation	patients with serious TEAE	2%
